Results pooled from the literature.
Method: steady-state kinetics
B1: hpxO (Klebsiella pneumoniae, UniProt A6T923); chain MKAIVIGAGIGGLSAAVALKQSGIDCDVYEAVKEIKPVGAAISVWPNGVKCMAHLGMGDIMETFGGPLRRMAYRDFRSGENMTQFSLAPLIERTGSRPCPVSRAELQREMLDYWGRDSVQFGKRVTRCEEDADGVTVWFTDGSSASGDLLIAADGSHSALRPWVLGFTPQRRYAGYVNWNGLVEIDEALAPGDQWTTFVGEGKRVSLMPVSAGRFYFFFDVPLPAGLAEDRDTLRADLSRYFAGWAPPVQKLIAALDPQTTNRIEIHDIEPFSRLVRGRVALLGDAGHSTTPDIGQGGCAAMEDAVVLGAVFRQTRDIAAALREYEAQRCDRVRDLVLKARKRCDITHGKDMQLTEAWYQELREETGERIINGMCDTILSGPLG
B2: Alanine racemase (Geobacillus stearothermophilus, UniProt P10724); chain MNDFHRDTWAEVDLDAIYDNVENLRRLLPDDTHIMAVVKANAYGHGDVQVARTALEAGASRLAVAFLDEALALREKGIEAPILVLGASRPADAALAAQQRIALTVFRSDWLEEASALYSGPFPIHFHLKMDTGMGRLGVKDEEETKRIVALIERHPHFVLEGLYTHFATADEVNTDYFSYQYTRFLHMLEWLPSRPPLVHCANSAASLRFPDRTFNMVRFGIAMYGLAPSPGIKPLLPYPLKEAFSLHSRLVHVKKLQPGEKVSYGATYTAQTEEWIGTIPIGYADGWLRRLQHFHVLVDGQKAPIVGRICMDQCMIRLPGPLPVGTKVTLIGRQGDEVISIDDVARHLETINYEVPCTISYRVPRIFFRHKRIMEVRNAIGRGESSA
B3: protein (Streptomyces glaucescens, UniProt B0B0T9); chain MRGTGVHIITFSFECGGFDNRLMRGGLSPLVWNLSRAYAARGHRVSLVTPAHGHLPALRERFDVRELDYRDEHTVPLVLDPKVWPDQPAGTGLSLDTRAHLLRLDGVDVYLLSDAFLDLLPDRLYPPPAFEGRDLAHAKPLVFQVGGLRFLQRHLGDGPAIVHGFEPYYHYLLPAVLAEDDRFRTVSTVAANAPVTQKVYRPQVERLLELFGVRGPDLDALDGPAPAEDSPMATVARALAGTRMHVEYGPDHVGVFPLVVAGADLVDFVSSGQRDHYVTWQDTPFEALFRSLPVSRRLRERPDRLLAGGCGISDSWLARDPGAVDRAAVRRSLGLTVPGPVFYHAARYAVHHKGQLELMRAVREVLADDPEVGFVIRCATGGGGDAPAVAANAAFQRLADRYPGRLYLDWRLADEDTLFAQAACADFCVFPSKFELDGFLIAQAEAMACGAVPIATAQRVTSHFGHQRPLGDPAATGFSVPGSFRDDDAGLARALAERIREAATVFRTEPDTYARLSRNARRLARSFTWARSADLRLTAYDRLWRGERAQPTAGELVEWGWLEALPPAALAGHRDLIVRAATERGDDLALARALGCGTDELEPDTWERLFASAHDRGDFVRCAELARRAGRPDLQARLANRFRVFGGPDGTWRVRYTHPRADRVELVAEASPAAPGAGPDAAAAAAAEGTPGPLESATETLASDEPAPAPGGAVLRPLAADGRGGFSGTLDGPPVASHAVAMVTLRSGRVVWDAVPTRAPAFRLVATDLDGTLLRSDLTVSARTRRALERVAAAGAHHLVVTGRPAVACRHLLGTLGYRGLAVCGQGAQLYDAGADRLLSSQSLDRDLARDVVAKVEAELGPVELGIVTSPPESRFKVTPAFGERVRHGWDVTADRELLWSAPIDKLILHHPDVDEDRLAAVTRRLTGGEVTVVHSVKGMVEVLPAGTDKGTGVARAARLLGLTGADTVAFGDMPNDIPLLSWAAHGVAVANAHHDLRAMADEIAPGNDEDGVASVLERLFAPVEVRP
B4: enzyme S124A (Arabidopsis thaliana, UniProt O82390); chain MNARALLCSSNIHSLYTSNRPPEKTSSSRSLRNLKPSPKSLRVWIYPRNRSSVFRVLVRSSDKSESSNSYYVEGDKVSGNNDVVSDSPSSIVLPWWEEFPKRWVIVLLCFSAFLLCNMDRVNMAIAILPMSAEYGWNPATVGLIQSSFFWGYLLTQIAGGIWADTVGGKRVLGFGVIWWSIATILTPVAAKLGLPYLLVVRAFMGVGEGVAMPAMNNILSKWVPVQERSRSLALVYSGMYLGSVTGLAFSPFLIHQFGWPSVFYSFGSLGTVWLTLWLTKAESSPLEDPTLLPEERKLIADNCASKEPVKSIPWRLILSKPPVWALISCHFCHNWGTFILLTWMPTYYHQVLKFNLMESGLLSVFPWMTMAISANAGGWIADTLVSRGFSVTNVRKIMQTIGFLGPAFFLTQLKHIDSPTMAVLCMACSQGTDAFSQSGLYSNHQDIAPRYSGVLLGLSNTAGVLAGVLGTAATGHILQHGSWDDVFTISVGLYLVGTVIWNLFSTGEKIID
B5: Nudt8 (Mus musculus, UniProt Q9CR24); chain MLPDGLSAEDEQRCRQLLARTTARLRSRPAAAAVLVPLCLVRGVPALLYTLRSSRLVGRHKGEVSFPGGKCDPDDQDVIHTALRETQEELGLEVPKEHVWGVLQPVYDREKATIVPVLANVGPLDLQSLRPNLEEVDEVFEMSLAHLLQTQNQGYTHFCQGGHFSYTLPVFLHGPHRVWGLTAVITELTLKLLAPGFYQPSLAVPELPRG
Sequence of UniProt Q9HAW9 (whole entry, looked up): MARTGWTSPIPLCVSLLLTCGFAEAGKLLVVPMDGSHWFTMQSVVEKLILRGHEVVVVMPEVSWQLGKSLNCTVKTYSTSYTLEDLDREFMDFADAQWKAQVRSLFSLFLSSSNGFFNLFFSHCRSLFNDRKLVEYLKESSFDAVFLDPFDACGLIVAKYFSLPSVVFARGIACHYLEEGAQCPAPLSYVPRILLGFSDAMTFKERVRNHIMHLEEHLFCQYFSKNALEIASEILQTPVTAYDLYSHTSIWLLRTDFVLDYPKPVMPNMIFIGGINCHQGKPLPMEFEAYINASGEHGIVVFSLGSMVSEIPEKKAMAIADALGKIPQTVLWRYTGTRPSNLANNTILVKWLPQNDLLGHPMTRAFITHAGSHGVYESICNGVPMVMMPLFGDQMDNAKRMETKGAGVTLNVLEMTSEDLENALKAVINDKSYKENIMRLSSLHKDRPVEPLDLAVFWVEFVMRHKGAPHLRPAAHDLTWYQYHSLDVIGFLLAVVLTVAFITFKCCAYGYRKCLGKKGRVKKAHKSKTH
Sequence of UniProt Q8QZR1 (whole entry, looked up): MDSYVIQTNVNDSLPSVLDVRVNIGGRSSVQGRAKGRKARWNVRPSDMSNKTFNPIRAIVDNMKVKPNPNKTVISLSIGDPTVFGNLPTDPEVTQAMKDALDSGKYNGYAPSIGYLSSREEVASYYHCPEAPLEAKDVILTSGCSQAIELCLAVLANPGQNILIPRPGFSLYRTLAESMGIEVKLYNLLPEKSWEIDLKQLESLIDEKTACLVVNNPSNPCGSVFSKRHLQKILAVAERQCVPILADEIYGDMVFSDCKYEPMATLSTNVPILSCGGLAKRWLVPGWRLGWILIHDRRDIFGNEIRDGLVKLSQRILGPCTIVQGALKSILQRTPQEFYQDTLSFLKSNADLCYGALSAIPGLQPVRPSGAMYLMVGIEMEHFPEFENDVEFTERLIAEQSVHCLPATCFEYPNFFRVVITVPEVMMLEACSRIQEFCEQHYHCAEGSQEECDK
Sequence of UniProt Q7L266 (whole entry, looked up): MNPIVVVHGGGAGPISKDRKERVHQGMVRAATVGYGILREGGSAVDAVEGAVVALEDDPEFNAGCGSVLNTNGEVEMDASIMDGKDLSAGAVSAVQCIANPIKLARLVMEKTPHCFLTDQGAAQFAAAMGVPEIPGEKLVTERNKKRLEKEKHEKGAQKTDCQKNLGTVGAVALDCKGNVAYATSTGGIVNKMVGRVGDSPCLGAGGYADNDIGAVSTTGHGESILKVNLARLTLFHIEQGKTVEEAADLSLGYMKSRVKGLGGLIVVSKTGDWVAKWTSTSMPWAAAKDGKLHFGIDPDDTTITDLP
Sequence of UniProt P14780 (whole entry, looked up): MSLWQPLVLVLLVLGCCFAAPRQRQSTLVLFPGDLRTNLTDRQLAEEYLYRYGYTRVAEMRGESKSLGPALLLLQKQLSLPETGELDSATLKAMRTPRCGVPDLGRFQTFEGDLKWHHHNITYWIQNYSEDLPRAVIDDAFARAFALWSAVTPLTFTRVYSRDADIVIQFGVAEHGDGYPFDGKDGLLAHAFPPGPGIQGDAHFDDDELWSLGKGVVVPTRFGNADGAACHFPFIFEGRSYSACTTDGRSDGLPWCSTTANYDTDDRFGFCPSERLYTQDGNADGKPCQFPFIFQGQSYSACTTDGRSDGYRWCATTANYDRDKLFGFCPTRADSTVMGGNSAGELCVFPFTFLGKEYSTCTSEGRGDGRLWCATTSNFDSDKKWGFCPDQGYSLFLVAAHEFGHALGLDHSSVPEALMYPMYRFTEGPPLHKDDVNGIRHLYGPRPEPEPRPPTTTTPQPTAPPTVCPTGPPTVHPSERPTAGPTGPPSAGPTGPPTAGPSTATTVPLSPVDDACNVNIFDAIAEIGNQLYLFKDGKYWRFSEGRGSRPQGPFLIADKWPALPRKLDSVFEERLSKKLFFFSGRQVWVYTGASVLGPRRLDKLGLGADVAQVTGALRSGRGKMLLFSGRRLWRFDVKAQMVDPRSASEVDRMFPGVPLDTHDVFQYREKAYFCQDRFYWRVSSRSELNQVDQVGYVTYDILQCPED
Sequence of UniProt Q6F4M8 (whole entry, looked up): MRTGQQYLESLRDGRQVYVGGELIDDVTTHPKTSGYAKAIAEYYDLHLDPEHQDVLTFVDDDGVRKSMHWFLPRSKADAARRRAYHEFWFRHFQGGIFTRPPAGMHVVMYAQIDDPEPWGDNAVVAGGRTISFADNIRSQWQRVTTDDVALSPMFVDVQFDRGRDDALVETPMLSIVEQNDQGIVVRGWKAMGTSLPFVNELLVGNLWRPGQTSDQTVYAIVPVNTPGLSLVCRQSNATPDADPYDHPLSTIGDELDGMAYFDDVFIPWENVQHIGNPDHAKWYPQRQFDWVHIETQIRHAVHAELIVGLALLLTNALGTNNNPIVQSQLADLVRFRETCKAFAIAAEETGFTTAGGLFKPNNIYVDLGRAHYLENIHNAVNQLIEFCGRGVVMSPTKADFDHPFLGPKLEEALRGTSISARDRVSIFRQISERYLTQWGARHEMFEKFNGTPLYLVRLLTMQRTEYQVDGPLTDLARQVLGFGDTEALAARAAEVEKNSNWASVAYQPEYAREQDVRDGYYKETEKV
Sequence of UniProt Q9UBT6 (whole entry, looked up): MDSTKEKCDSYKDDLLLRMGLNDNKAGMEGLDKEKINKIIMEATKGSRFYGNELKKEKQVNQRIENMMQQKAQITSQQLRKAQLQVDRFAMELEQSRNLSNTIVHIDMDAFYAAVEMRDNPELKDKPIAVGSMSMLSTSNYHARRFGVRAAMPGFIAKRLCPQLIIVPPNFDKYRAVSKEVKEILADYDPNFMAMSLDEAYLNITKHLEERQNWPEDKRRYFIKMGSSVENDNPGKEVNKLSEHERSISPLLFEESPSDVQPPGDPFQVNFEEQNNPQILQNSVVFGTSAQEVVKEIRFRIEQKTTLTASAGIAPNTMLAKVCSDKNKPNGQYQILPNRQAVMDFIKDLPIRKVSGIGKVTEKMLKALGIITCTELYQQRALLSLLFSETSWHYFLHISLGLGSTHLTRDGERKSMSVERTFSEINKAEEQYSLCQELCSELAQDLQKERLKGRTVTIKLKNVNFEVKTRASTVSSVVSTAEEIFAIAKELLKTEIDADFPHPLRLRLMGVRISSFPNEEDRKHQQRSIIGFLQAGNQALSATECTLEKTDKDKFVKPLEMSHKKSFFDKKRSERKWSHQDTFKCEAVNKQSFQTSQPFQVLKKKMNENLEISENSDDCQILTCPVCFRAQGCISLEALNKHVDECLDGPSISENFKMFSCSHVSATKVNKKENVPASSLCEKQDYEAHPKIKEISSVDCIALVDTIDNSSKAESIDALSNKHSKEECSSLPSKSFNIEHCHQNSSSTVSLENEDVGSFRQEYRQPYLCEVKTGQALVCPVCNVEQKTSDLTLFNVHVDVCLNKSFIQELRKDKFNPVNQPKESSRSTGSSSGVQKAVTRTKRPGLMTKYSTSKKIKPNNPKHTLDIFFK
Sequence of UniProt P07914 (whole entry, looked up): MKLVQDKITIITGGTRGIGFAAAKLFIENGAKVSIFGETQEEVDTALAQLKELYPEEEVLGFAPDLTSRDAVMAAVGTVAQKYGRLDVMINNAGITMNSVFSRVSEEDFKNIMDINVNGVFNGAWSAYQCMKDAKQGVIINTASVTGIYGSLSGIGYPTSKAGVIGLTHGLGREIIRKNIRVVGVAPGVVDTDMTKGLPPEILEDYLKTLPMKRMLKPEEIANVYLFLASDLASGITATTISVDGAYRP

| Molecule | substrate | setting | Km |
| --- | --- | --- | --- |
| B1 (hpxO) | NC(=O)C1=CN([C@@H]2O[C@H](COP(=O)(O)OP(=O)(O)OC[C@H]3O[C@@H](n4cnc5c(N)ncnc54)[C@H](O)[C@@H]3O)[C@@H](O)[C@H]2O)C=CC1 | pH 8, 25 °C | 500 µM |
| B2 (Alanine racemase) | C[C@@H](N)C(=O)O | pH 8.9, 25 °C, D to L direction | 4000 µM |
| POLK (Homo sapiens, UniProt Q9UBT6) | Nc1ncnc2c1ncn2[C@H]1C[C@H](O)[C@@H](COP(=O)(O)OP(=O)(O)OP(=O)(O)O)O1 | pH 7.5, 23 °C, MgCl2 5 mM, added: 8-oxoG template | 1.7 µM |
| ASRGL1 (Homo sapiens, UniProt Q7L266) | CC(C)C[C@H](NC(=O)C[C@H](N)C(=O)O)C(=O)O | pH 7.4, 37 °C, NaCl 100 mM | 1200 µM |
| MMP9 (Homo sapiens, UniProt P14780) | CC(=O)N[C@@H](CCC(N)=O)C(=O)N1CCC[C@H]1C(=O)N[C@@H](CCC(N)=O)C(=O)NCC(=O)N[C@@H](CC(C)C)C(=O)N[C@@H](C)C(=O)N[C@@H](CCCCN)C(N)=O |  | 1220 µM |
| B3 (protein) | Cc1cn([C@H]2C[C@H](O)[C@@H](COP(=O)(O)OP(=O)(O)O[C@H]3O[C@H](C)[C@@H](N)[C@H](O)[C@H]3O)O2)c(=O)[nH]c1=O | pH 7.5, 30 °C, apparent, added: maltose 1 mM | 306 µM |
| enzyme (Rhodococcus opacus, UniProt Q6F4M8) | O=[N+]([O-])c1ccc(O)cc1 | pH 7.5, 25 °C | 56.7 µM |
| BaiA1 (Clostridium scindens, UniProt P07914) | C[C@H](CCC(=O)SCCNC(=O)CCNC(=O)[C@H](O)C(C)(C)COP(=O)(O)OP(=O)(O)OC[C@H]1O[C@@H](n2cnc3c(N)ncnc32)[C@H](O)[C@@H]1OP(=O)(O)O)[C@H]1CC[C@H]2[C@@H]3CC[C@@H]4CC(=O)CC[C@]4(C)[C@H]3C[C@H](O)[C@]12C | pH 8.7, 37 °C, added: NADH | 5.6 µM |
| B4 (enzyme S124A) | O=P(O)(O)O | pH 6.5, 25 °C, apparent, not purified | 44.8 µM |
| UGT1A8 (Homo sapiens, UniProt Q9HAW9) | COc1cc2c(cc1CC=C(C)C)C(=O)C[C@@H](c1ccc(O)cc1)O2 | pH 7.4, 37 °C | 6.3 µM |
| Tat (Mus musculus, UniProt Q8QZR1) | O=C(O)C(=O)Cc1ccccc1 | pH 7, 38 °C, added: PLP | 900 µM |
| B5 (Nudt8) | CC(C)(COP(=O)(O)OP(=O)(O)OC[C@H]1O[C@@H](n2cnc3c(N)ncnc32)[C@H](O)[C@@H]1OP(=O)(O)O)[C@@H](O)C(=O)NCCC(=O)NCCSC(=O)CCC(=O)O | pH 8.5, added: 2 mM Mn2+ | 329 µM |

A few entries again:
| Molecule | substrate | setting | Km |
| --- | --- | --- | --- |
| B3 (protein) | Cc1cn([C@H]2C[C@H](O)[C@@H](COP(=O)(O)OP(=O)(O)O[C@H]3O[C@H](C)[C@@H](N)[C@H](O)[C@H]3O)O2)c(=O)[nH]c1=O | pH 7.5, 30 °C, apparent, added: maltose 1 mM | 306 µM |
| MMP9 (Homo sapiens, UniProt P14780) | CC(=O)N[C@@H](CCC(N)=O)C(=O)N1CCC[C@H]1C(=O)N[C@@H](CCC(N)=O)C(=O)NCC(=O)N[C@@H](CC(C)C)C(=O)N[C@@H](C)C(=O)N[C@@H](CCCCN)C(N)=O |  | 1220 µM |
